Assay results pooled from the literature.
Numbered parts are unrelated; each lists some results of a single study.

Study 1
Target: Sal-like protein 4, full length isoform B (SALL4, Homo sapiens, UniProt Q9UJQ4-2, residues 1-616)
Method: universal PBM
Form: double-stranded DNA, one strand shown
Matrix: in vitro
Concentration: not given
Setting: 8-mer, flanks averaged, mean of replicates
Direction: higher = stronger binding
| Strand | E-score |
| --- | --- |
| GAATAGGC | -0.0394 |
| GACACGAA | -0.12 |
| GACTGCAA | -0.063 |
| ATTCAAAG | 0.116 |
| ACAGAGCG | -0.0751 |
| CTATGCCC | -0.0766 |
| CATAATGA | 0.254 |
| AAAACTGG | 0.0394 |
| ACAAGAGT | 0.103 |
| CCGATAAC | 0.0131 |
| ACCCATTA | 0.0898 |
| AGAACGGA | -0.0111 |
| AAGTACGT | 0.128 |
| AGAGCCTA | -0.0574 |
| TAGATAAA | 0.283 |
| TAGCTAGA | -0.0745 |
| ATGCTAAA | 0.159 |
| ATCACTAA | 0.0901 |
| ACGGCACG | -0.136 |
| ACCTTAGA | 0.0191 |
| ACCGGAAA | 0.013 |
| ATGCGGGG | -0.155 |
| AAATCAAA | 0.312 |
| AGATTCAC | -0.0432 |
| AACTTATC | 0.207 |

Study 2
Target: RING finger protein unkempt homolog, zinc fingers 1-6, GST-SBP tag (UNK, Homo sapiens, UniProt Q9C0B0, residues 30-357)
Chain of UniProt Q9C0B0 (30-357, looked up): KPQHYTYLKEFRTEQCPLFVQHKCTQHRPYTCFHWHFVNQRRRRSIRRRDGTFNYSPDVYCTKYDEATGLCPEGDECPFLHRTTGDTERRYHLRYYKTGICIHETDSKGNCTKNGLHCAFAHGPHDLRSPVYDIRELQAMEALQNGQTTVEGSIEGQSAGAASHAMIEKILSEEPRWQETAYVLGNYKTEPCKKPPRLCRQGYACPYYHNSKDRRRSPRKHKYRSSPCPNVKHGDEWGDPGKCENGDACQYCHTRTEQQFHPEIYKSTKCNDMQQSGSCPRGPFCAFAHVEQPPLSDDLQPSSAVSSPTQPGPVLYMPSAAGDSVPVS
Method: RNA Bind-n-Seq
Form: RNA
Matrix: in vitro
Concentration: not given
Setting: RNA with constant flanks, human-mouse chimeric sites, ends assumed
Baseline: input RNA pool
Direction: higher = stronger binding
| Strand | bound/input enrichment [ratio] |
| --- | --- |
| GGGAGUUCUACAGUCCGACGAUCAAGGUGAUGACUAUGUUUGUCCAACGACAGGUAUUUUCGGAGAGCAAGGAUGAGAUUGCGUUAGUCCUCUAUGGCACAGAUGGCACUGAUAAUGCCCUUGCUGGCAAGGACCAGUAUCAGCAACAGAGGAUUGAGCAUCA | 0.108 |
| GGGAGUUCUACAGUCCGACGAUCUCGGAUGCUGUGCUGGGUCACUUUUCAUAUCCAGAUCCUUCCCAGUGGACAGAUGAAGAACUGGGAAUCCCUCCUGAUGAUGAAGACUGACACUGUAAACUCUCUGGACGAGUAGGAGCACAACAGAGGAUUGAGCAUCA | 0.497 |
| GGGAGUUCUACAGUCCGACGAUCUUAAUCCCCUUUACUGCUCCCCCACUUCUCAUGGUAAUGACAAAAACUUAUAUCCCCGUCCUAGCUUUCACUCAGAUGGCUUAUGGAGCCGGUUUCCUAGCUUUCUUGGGUGGGAUCAGACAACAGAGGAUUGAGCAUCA | 0.277 |
| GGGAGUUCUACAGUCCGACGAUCAACAGAUUGUCUUUAAGCAUUCCAAGCAAUGCUUGGGGGGUGAUCAUUGUUGCCCAUAUAUAGUAAUACUGAGCUUUAAUGCUGUUCCAUGUUACAUCUUUCCUUCACUCCAGAAUUGUUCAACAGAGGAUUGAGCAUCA | 0.616 |
| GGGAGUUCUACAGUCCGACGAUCGUGUCCUGCUUUCAACUUAAAUCACUGAGGCAUCUCUACUGUUCUGUUAAAAUCAGGAUUUUAGUGCUGUGUCACCACAUGAGAGUUCAGAAGCAGCCUUUCUGUGGAGGGUGGGAAUGACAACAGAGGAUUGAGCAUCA | 0.158 |
| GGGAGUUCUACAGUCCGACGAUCAACAGAUUGUCUUUAAGCAUUCCAAGCAAUGCUUGGGGGGUGAUCAUUGUUGCCCAUGUGCCUUCUGACUGAGCUUUAAUGCUGUUCCAUGUUACAUCUUUCCUUCAUUGCAUAUUUGUUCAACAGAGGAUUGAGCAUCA | 0.148 |
| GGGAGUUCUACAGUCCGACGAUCUGUAGUUUCUUGAUUUAUCAUUUUUCUCUUUUCUUUCUUUCCUUUAGGAAAAGCCUAAAGAUUAGGUUGUAAGAAAAGAAAAUAGAAUGUUUCGAAGGAAGACCUGUCAGGUAUUUCGUCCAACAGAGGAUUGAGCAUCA | 0.235 |
| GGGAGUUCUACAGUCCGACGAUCGCCACCAGAUCCCAGAAACAUGACUCUUGCUGCCUACAAAGAGAAGAUGAAGGAGCUCCCGCUGGUGUCUCUGUUCUGCUCCUGCUUCCUGGCCGAUCCCCUGAAUAAGUCGUCCUACAACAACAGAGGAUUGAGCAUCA | 0.32 |

Study 3
Target: RNA binding protein fox-1 homolog 2, RRM domain, GST-SBP tag (RBFOX2, Homo sapiens, UniProt O43251-10, residues 100-194)
Method: RNA Bind-n-Seq
Form: RNA
Matrix: in vitro
Concentration: 365 nM
Setting: natural RNA segment, single round, ends assumed
Baseline: no-protein control
Direction: higher = stronger binding
Construct (chain): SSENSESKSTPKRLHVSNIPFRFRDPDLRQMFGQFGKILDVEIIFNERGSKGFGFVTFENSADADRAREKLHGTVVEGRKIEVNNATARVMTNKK
| Strand | RBNS enrichment (R) |
| --- | --- |
| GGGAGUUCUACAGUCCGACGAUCCAGCGCCGCCGAGCUGACCCCACUCUGGAGCCUGGCCGAGCUGGCAGCAUGGAGCCCUCGGCUCCCCAGACUUUGCCGAGGGGCUGCUCCGGACCCCGUUGUGAGCCGGCUGGAAUUCUCGGGUGCCAA | 5.82 |
| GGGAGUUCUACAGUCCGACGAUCAGCCGUGCAGCACUCGGGAUGUCUGGUUCAGCAGACCCAGGCUUUAUUGGCCAAAGCAUUCUUACAGAACAGUGUCUAAAAGGUCAUUCCCAACCCUUUCUGAUAUUGGCUGGAAUUCUCGGGUGCCAA | 0.311 |
| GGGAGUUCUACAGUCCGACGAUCUUACAGUGGCUCGUUGCUUCCCUCACUCUGCCCUUGUUAAUAGAAAUUCUCACAGGCCAGGCUCUGUGCGGGCUCUAGUGCCAGGUGUAGCUGGGUACAUUCCCCGUCAGUGGAAUUCUCGGGUGCCAA | 0.137 |
| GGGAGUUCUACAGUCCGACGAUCAGUUGUAAGAUAACAUUUGAAAUGUGAGACUAUAUGGUUUUUAAUAAAAUGUUUGAUGUUUUAUCCCUCUGGGUCUGUGAUCUUAUUGGACCUUAGAAGUACUCUGAGCCUGGAAUUCUCGGGUGCCAA | 0.393 |
| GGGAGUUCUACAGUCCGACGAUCUUGAGGGGCAGGUUCCCCCAGGUGGUCCCCAGAUUUGCACUAAUGUUCCUCCCCUGGCCAGUUAGGGAUGGGAUGUUCUGUGUCUUGUGUGUCCCUCUCCCUAGUCUAAAUGGAAUUCUCGGGUGCCAA | 1.3 |
| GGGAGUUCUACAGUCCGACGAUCUUUGCAGCCACAUGGGACUUUUCUGGGUUGACAAGAGGAUGCUCUAGUCAUGUAAGCCACUAAGAUAGAAGGCCAGUCUCAGUUUCCCUAGGGAAGAGCCCAUCCUGGAGUGGAAUUCUCGGGUGCCAA | 0.643 |
| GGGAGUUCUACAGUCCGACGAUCAAUAUUUGCUACUAGACUGUUCAUUUCUCUCUGACAUGUUUGUUGAAUGAAUAAAUAAUUUGAAACUCUACUUGAUUUAUGGAGGGUGGAAAGGGGAGGGAUGGAGAAUCUGGAAUUCUCGGGUGCCAA | 0.917 |
| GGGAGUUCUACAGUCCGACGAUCCUUAAACUCUGCAGCUUUCAAGCUCAUCUGUUAUGCAUAGCUUUGCACUUCAAAAAAGCUUAAUUAAGUACAACCAACCACCUUUCCAGCCAUAGAGAUUUUAAUUAGCCUGGAAUUCUCGGGUGCCAA | 0.884 |

Study 4
Target: Histone acetyltransferase KAT6A, winged helix 2, GST fusion (KAT6A, Homo sapiens, UniProt Q92794, residues 85-181)
Method: protein binding microarray
Form: double-stranded DNA, one strand shown
Matrix: in vitro
Concentration: not given
Setting: 8-mer, flanks averaged, mean of 2 arrays, mostly near background
Baseline: not given
Direction: higher = stronger binding
Target sequence (chain): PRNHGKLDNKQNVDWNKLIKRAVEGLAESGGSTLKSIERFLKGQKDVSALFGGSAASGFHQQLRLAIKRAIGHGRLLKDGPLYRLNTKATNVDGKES
| Strand | E-score |
| --- | --- |
| CTGACGCA | -0.0699 |
| ACACGACA | -0.0801 |
| ACGGCACG | 0.154 |
| GCAGAGGA | 0.0204 |
| AGTGAAGC | 0.0968 |
| CCCTGAAA | 0.00975 |
| ACGATACC | 0.0574 |
| TCAGACAA | -0.163 |
| ACAAACCC | 0.059 |
| GAAAGAGA | 0.0744 |
| ATCTACAT | -0.0388 |
| TGACCTCA | -0.0823 |
| ACAGCGAG | 0.0329 |
| GAAGCACC | -0.024 |
| ATTCCTCA | 0.0029 |
| CAAGTAAC | -0.151 |
| CCTTAGAA | -0.089 |
| TCCTCGCA | 0.0764 |
| ATGTTTAA | -0.121 |
| CATTAGCC | -0.121 |
| ACCTGGTA | -0.228 |

For quick reference, copied from above (study 4):
| Strand | E-score |
| --- | --- |
| ACAAACCC | 0.059 |
| GAAAGAGA | 0.0744 |
| ATCTACAT | -0.0388 |
| TGACCTCA | -0.0823 |
| ACAGCGAG | 0.0329 |
| GAAGCACC | -0.024 |
| ATTCCTCA | 0.0029 |
| CAAGTAAC | -0.151 |
| CCTTAGAA | -0.089 |
